Experimental data collected from several papers.
Numbered parts are unrelated; each lists some results of a single study.

Study 1
Target: RNA binding protein fox-1 homolog 2, RRM domain, GST-SBP tag (RBFOX2, Homo sapiens, UniProt O43251-10, residues 100-194)
Method: RNA Bind-n-Seq
Form: RNA
Sample: in vitro
Tested at: 365 nM
Notes: natural RNA segment, single round, ends assumed
Baseline: no-protein control
Reading: higher = stronger binding
Shared flanks, not repeated: GGGAGUUCUACAGUCCGACGAUC … UGGAAUUCUCGGGUGCCAA
Residues (chain): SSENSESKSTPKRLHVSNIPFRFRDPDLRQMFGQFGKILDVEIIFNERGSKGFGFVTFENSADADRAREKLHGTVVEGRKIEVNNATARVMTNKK
`GACAUUAAGAAGUGGAUGGAUGUUGUUCCUUUUUUGAAGUUGUCAUUAAAGUAGGUGCAACAACCAAGAAAGUGUCUCUUCCCUCUUUGAAAGCCUGCCCCAUCUCUGCC` — result for “RBNS enrichment (R)”: 1.02.
For `AGGUUUGGCGGGGGGCCACAGGGAGGGGACCCUGACAAUAAAGAGAUUGGAUCCCAACCUGUUCUGAGAUGGGAUGGUUUGUGUUUUCUCAUGAAGAUAUCCCGGCCCCU`, “RBNS enrichment (R)” read 0.595.
`CAGACAGACUUGAGUCUGUAAAGACAAGCAAAUACACUGACAGAAGUUUACCAUAGUUUCUAAAAUGUAAAAAAGAAAACCCCCAAAAGACUCAAGAAAAUUAGACCACA` — result for “RBNS enrichment (R)”: 0.41.
For `AUAAAAAGGAUACAGAAUUGUAUAUACAUACUUACUGUAACACAUCUAAAAAAAUGUAUAUGGGUAAGGACCUGAAAGAUCCAUGGAAAAGUUAACCCAGUUGAGAUUUU`, “RBNS enrichment (R)” read 0.379.
`CUGAUUCAAAAUGUGUCCACACUUCGUAGAGUCUAGAAUACUGGACUGUAGAGAAACUACUUUGAACCUGUGGUUGAAAACGAUGAAAUGUGAUAAAUCUUUUUGUAGUU`: “RBNS enrichment (R)” 0.258.
`AUUGCCACAAUCUCUGGAUGGUUUUCCAGGGUUGUGUUAUUACUGAGCUUCAUCUUUCCAGAAUGAGCAAAACACUGUCCAGUCUUUGUUACGAUUUUGUAAUAAAUGUG`: “RBNS enrichment (R)” 0.276.
For `CUGUCGCUGCUUUUUGUCCUCUGCCGUGUUUGCGCGGCCUCAGUGCCCUCCCUGGUGCGUCUGCGCUGGGGCCCUCAGUGCUCGGGGCCUUGGGGUGCAUGGGUGCCGCC`, “RBNS enrichment (R)” read 0.728.
For `UUCUGCUGGCUUCUCCGGCUUUCAGAGCCCUGAAACAAAGAGAAACAGGAUCUGUCCCUACCCAGCACAGCAAAUGGUUGUAGUAAUUGCCAAAGCCCUCAUAAAGCCCU`, “RBNS enrichment (R)” read 0.226.

Study 2
Target: Interferon regulatory factor 5, full length, phosphomimetic (IRF5, Homo sapiens, UniProt Q13568-2, residues 1-514, S451D/S453D/S456D/S462D)
Method: protein-binding microarray
Form: double-stranded DNA, one strand shown
Sample: in vitro
Tested at: 940 nM top
Notes: 60-bp whole probe
With: salmon DNA 0.4 mg/ml
Baseline: random background probes
Reading: higher = stronger binding
Shared flanks, not repeated: GCCTAGCAC … GTCTTGATTCGCTTGACGCTGCTG
`TTAGCTATCGACACTGGGTTAGTGCTA`: “fitted relative affinity” 0.0626 z-score.
Under “fitted relative affinity”, `GACGGTGTCGGTATCGGGACGTGCTAG` is recorded as 1.76 z-score.
`TCAAATTTGAGTCACTGACTGTGCTAG`: “fitted relative affinity” -0.426 z-score.
For `GAAGGTATCGGGACTGGGGACGTGCTA`, “fitted relative affinity” read 2.27 z-score.
For `TTAGGTTGCCTTTCCCTTTAGTGCTAG`, “fitted relative affinity” read 0.288 z-score.
For `GACGGTATCGGACTGGGCACGTGCTAG`, “fitted relative affinity” read 2.1 z-score.
`TTTGATATCGGGACTGGATTAGTGCTA` — result for “fitted relative affinity”: 0.201 z-score.
Under “fitted relative affinity”, `GACGGTTGCGGGTATCGGGACGTGCTA` is recorded as 1.19 z-score.
For `GACGAACTGAGTTGCGAGACGTGCTAG`, “fitted relative affinity” read -0.382 z-score.
`GACGATCTCAGGCTCGAGACGTGCTAG`: “fitted relative affinity” -0.221 z-score.
Under “fitted relative affinity”, `TTAGGAGTGGTACATGAAGCGTGCTAG` is recorded as -0.753 z-score.
`GACGGTATCGACCATCGGGACGTGCTA`: “fitted relative affinity” 3.61 z-score.
`TTAGGTATCCTTATTCTTTAGTGCTAG`: “fitted relative affinity” 0.511 z-score.
`GACGAACTGGGGAGTGGAGACGTGCTA`: “fitted relative affinity” 0.168 z-score.
Under “fitted relative affinity”, `GACGATAGCGGGTATCGAGACGTGCTA` is recorded as 1.11 z-score.
For `TTAGATCTCAGTATCGATCAGTGCTAG`, “fitted relative affinity” read 4.2 z-score.
For `TCCTATGTCATTTACATTTTGTGCTAG`, “fitted relative affinity” read 0.118 z-score.
Under “fitted relative affinity”, `CGTCATTTCACAGTTAACCAGTGCTAG` is recorded as 0.244 z-score.
`TTAGGACTGATTATCCTTTAGTGCTAG`: “fitted relative affinity” -0.641 z-score.

Study 3
Target: Histone acetyltransferase KAT6A, winged helix 2, GST fusion (KAT6A, Homo sapiens, UniProt Q92794, residues 85-181)
Method: protein binding microarray
Form: double-stranded DNA, one strand shown
Sample: in vitro
Tested at: not given
Notes: 8-mer, flanks averaged, mean of 2 arrays, mostly near background
Baseline: not given
Reading: higher = stronger binding
Target sequence (chain): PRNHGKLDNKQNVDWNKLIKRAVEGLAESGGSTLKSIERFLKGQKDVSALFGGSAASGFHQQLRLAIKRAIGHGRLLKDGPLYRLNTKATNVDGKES
The E-score of `CAGTCAAC` is reported as -0.102.
With `CGTAAAGA` the E-score was -0.0707.
With `ATAACACC` the E-score was 0.021.
With `CGTTTGAG` the E-score was 0.126.
For `ACTGTGAG`, the E-score was -0.0667.
For `CTGAGCGA`, the E-score was 0.196.
The E-score of `GGTAAAGA` is reported as -0.0102.
`AGATCTTC` has an E-score of 0.0154.
With `AGCGGGCC` the E-score was 0.0598.
`AGAGACCA` has an E-score of 0.0274.
`CCGTCGCG` gave an E-score of 0.12.
For `ATGGGCTA`, the E-score was -0.113.
With `CCGATAAC` the E-score was -0.00553.
With `CGACGCAG` the E-score was 0.144.
`AATGCGCA` has an E-score of 0.0723.
`CATCGGTC` has an E-score of -0.0328.
For `GGACGACA`, the E-score was 0.0577.
For `AGTGCTTA`, the E-score was -0.00352.
With `GTCTTGGA` the E-score was -0.208.
For `GAAACTAA`, the E-score was -0.0605.
For `TCAATTCA`, the E-score was 0.00844.
`CTGAACGA` has an E-score of -0.127.
The E-score of `CCAACGAC` is reported as -0.101.
The E-score of `AGTGGGCG` is reported as 0.213.

Study 4
Target: Centromere-binding protein 1, full length, N-terminal tag (CBF1, Saccharomyces cerevisiae, UniProt P17106, residues 1-351)
Sequence of UniProt P17106 (whole entry, looked up): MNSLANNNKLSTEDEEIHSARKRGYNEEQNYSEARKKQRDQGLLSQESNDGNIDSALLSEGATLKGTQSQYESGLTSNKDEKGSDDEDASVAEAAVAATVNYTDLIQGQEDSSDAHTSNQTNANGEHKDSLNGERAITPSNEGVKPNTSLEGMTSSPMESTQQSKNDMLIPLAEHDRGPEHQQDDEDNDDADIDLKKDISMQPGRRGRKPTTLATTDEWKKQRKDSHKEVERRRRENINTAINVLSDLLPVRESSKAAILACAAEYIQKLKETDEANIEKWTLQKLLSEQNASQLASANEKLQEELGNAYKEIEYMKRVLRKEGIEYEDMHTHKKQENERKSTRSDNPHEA
Method: protein-binding microarray
Form: double-stranded DNA, one strand shown
Sample: in vitro
Tested at: 0.8 µM
Notes: whole 60-bp probe, no competitor
Reading: higher = stronger binding
Shared flanks, not repeated: … GTCTTGATTCGCTTGACGCTGCTG
For `GAAATTTCCAGTGTGCACGGGTTGAAATAAATGTAG`, the fluorescence intensity was 1140 a.u.
For `GAAAACGTTAACACACATGTGCTTCTTTATTGTTAG`, the fluorescence intensity was 1020 a.u.
`GAAGATCCGGAATTAAACGTGGACCCTCGAGCGTAG` gave a fluorescence intensity of 510 a.u.
`TGTACGAAGCTATATCAGCTGTTTATAGTAGTTAGG` has a fluorescence intensity of 573 a.u.
With `TGTACGAAGCTATTGCACGAGAATATAGTAGTTAGG` the fluorescence intensity was 594 a.u.
With `CTAAAATTTTCTGGTCTGATGTTCTTTACGTGTTTC` the fluorescence intensity was 530 a.u.
`GAACGGGCTGCCAACCCCGTGGACCGTCAGGTATAG` has a fluorescence intensity of 531 a.u.
For `CTAAACGAGCTAGATCATGTGAGAGAGATAGTATTC`, the fluorescence intensity was 1620 a.u.
The fluorescence intensity of `CTACTACGATACATGCACGCCGCTCATCTATATTTC` is reported as 506 a.u.
`CCTAACTACTATACTCACCTTATATAGCTTCGTACA` gave a fluorescence intensity of 534 a.u.
For `CTAATTGCTCAACAAAGCGTGTCTTTTTCTGTGTTC`, the fluorescence intensity was 507 a.u.
With `GAACGCTAACATTAACAGCTGATGACTTGAAGTTAG` the fluorescence intensity was 645 a.u.
The fluorescence intensity of `GAAAAGAGTTTAGATCACGAGTATTTTCGCTCTTAG` is reported as 1400 a.u.
`CTACCTTGCATACACGTGAATATGTCTATTTTATTC` has a fluorescence intensity of 2710 a.u.
With `CTAAGTATAGTTATACATGTGGATGTGTATGGATTC` the fluorescence intensity was 576 a.u.
For `GAACTGTGATGCAGGGCCGTGACGCCCTGTTAGTAG`, the fluorescence intensity was 588 a.u.
The fluorescence intensity of `GAAAATTGGAGTTCCATCACCATCAATATAGCATAG` is reported as 517 a.u.
For `CTACTCTATTGTTAACACGAGGGAAAAGATGGATTC`, the fluorescence intensity was 714 a.u.
With `CTACAGCCAATCAAACACGAGGAATGTGGGATGTTC` the fluorescence intensity was 606 a.u.

Excerpt of the above (study 4):
For `GAAATTTCCAGTGTGCACGGGTTGAAATAAATGTAG`, the fluorescence intensity was 1140 a.u.
For `GAAAACGTTAACACACATGTGCTTCTTTATTGTTAG`, the fluorescence intensity was 1020 a.u.
`GAAGATCCGGAATTAAACGTGGACCCTCGAGCGTAG` gave a fluorescence intensity of 510 a.u.
`TGTACGAAGCTATATCAGCTGTTTATAGTAGTTAGG` has a fluorescence intensity of 573 a.u.
With `TGTACGAAGCTATTGCACGAGAATATAGTAGTTAGG` the fluorescence intensity was 594 a.u.
With `CTAAAATTTTCTGGTCTGATGTTCTTTACGTGTTTC` the fluorescence intensity was 530 a.u.
`GAACGGGCTGCCAACCCCGTGGACCGTCAGGTATAG` has a fluorescence intensity of 531 a.u.
For `CTAAACGAGCTAGATCATGTGAGAGAGATAGTATTC`, the fluorescence intensity was 1620 a.u.
The fluorescence intensity of `CTACTACGATACATGCACGCCGCTCATCTATATTTC` is reported as 506 a.u.
`CCTAACTACTATACTCACCTTATATAGCTTCGTACA` gave a fluorescence intensity of 534 a.u.
